Measurements collected from several papers.
Compare with care: the assays were run in different laboratories. Numbers after ± are the reported error.

`CC(C)c1ccc(N(C)c2ccc3c(c2)OCC[C@H]3CNc2cnccc2C(=O)O)cc1` has an IC50 of 3.54 nM (NCI-H82; cell growth or viability, ATP luminescence; 7 days).
With `Cc1cc(NC2CCN(C)CC2)ccc1-c1cc2c(N3CCC[C@H](C(=O)NCc4ccc(Cl)nc4)C3)ncnc2[nH]1` the inhibition was 85.6% (NCI-H2228; cell growth or viability, MTT; 5 µg/mL, 72 h).
`CCN(CC)CC(=O)Nc1cccc(-n2cc(-c3ccc4ccc(-c5cn(-c6cccc(NC(=O)CN(CC)CC)c6)nn5)cc4c3)nn2)c1` gave a fold regulation of 1.65 (RCC4; PCR angiogenesis array, item: MMP2; 5 x IC50, 4 h, normoxia; reference: untreated).
`CC(C)(C)NCC(SS(=O)(=O)O)c1ccccc1` (stereo not drawn) has a liver weight of 3.99 g (Schistosoma mansoni; perfusion day 52; infected Swiss Webster mice; 600 mg/kg single dose, 1248 h, dosed day 7 post-infection).
For `Cc1ncsc1-c1ccc(C(C)NC(=O)C2CC(O)CN2C(=O)C(NC(=O)CCCCCCCCCCN2CCCC(Nc3ncc(Cl)c(Nc4ccccc4S(=O)(=O)C(C)C)n3)C2)C(C)(C)C)cc1` (stereo not drawn), “log2 fold change” read -2.77 (22Rv1; RNA-seq, item: MAFG-DT; concentration not given; reference: DMSO).
`CN1CCCNC(=O)c2cccc(c2)C(=O)NCCCN(C)CCCNc2cccc3c2C(=O)c2cccc(c2C3=O)NCCC1`: “log2 fold change” 1.39 (SAS; RNA-Seq, item: MRM1 mRNA; 1 µM, 6 h; reference: untreated cells).
For `COc1cc(O)ccc1CCC(c1ccc(O)cc1)c1cc2c(c(C)c1O)OC(c1ccc(O)cc1)CC2` (mixture of isomers), the 4-HDHA level was 93 ± 48 pg/mL (human blood; 30 µM, added: A23187).
With `Nc1nc(-c2ccccc2)nc2[nH]nc(Nc3cccc(Cl)c3)c12` the IC50 was 10 nM (coxsackievirus B3; viral cytopathic effect; HeLa).
For `O=C(NCc1ccc(OC(F)(F)F)cc1)[C@H]1CCCN(c2ncnc3[nH]c(-c4ccncc4)cc23)C1`, the inhibition was 49.6% (NCI-H2228; cell growth or viability, MTT; 0.04 µg/mL, 72 h).
The IL-1β inhibition of `CN1CCC[C@]1(C)/C=C/S(=O)(=O)NC(=O)Nc1c2c(cc3c1CCC3)CCC2` is reported as 98.9% (human, whole blood ex vivo; 250 mg single dose, 24 h, single ascending dose, added: LPS and ATP).
For `C=CC(=O)Nc1cccc(Cn2ncc3cnc(Nc4cnn(CCOC)c4)nc32)c1`, the binding was 3.4% (human CSF1R-autoinhibited; KINOMEscan; 100 nM; reference: control).
`C=C(NC(=O)c1csc(-c2nc3c(cc2O)-c2nc(cs2)C(=O)NC(C(C)O)C(=O)NC(=C(C)OC)c2nc(cs2)C(=O)NC2c4nc(cs4)C(=O)NC(COC(=O)c4c5c6c(cccc6n4O)COC(=O)C(OC4CC(C)(O)C(N(C)C)C(C)O4)C2OC5)c2nc-3cs2)n1)C(N)=O` (stereo not drawn) gave a post-antibiotic effect of 1.15 ± 0.2 h (Staphylococcus aureus; ATCC 43300 MRSA; 1 x MIC, 3 h exposure).
`COC1CN([C@H]2CC[C@H]([C@@]3(C)Oc4c(Cl)cc(C(=O)NCc5c(SC)cc(C)[nH]c5=O)c(C)c4O3)CC2)C1`: “log2 fold change” 4.09 (RNA-seq, item: MAPRE3 mouse homolog; mouse, HT-1376 xenograft, whole blood; dose not given; reference: vehicle).
With `Nc1nc(-c2ccc(Cl)cc2)nc2[nH]nc(Nc3cccc(F)c3)c12` the IC50 was 270 nM (rhinovirus B42; viral cytopathic effect; HeLa).
With `C=CC(=O)N1[C@@H](c2ccc3c(c2)OCO3)c2[nH]c3ccccc3c2C[C@H]1C(=O)N1CCN(C)CC1` the relative co-enrichment was 103% (human cyclin E1 wild type-3xFLAG:CDK2; co-IP with TMT proteomics, item: HNRNPU; concentration not given, Q00839; reference: wild type DMSO).
For `Nc1nc(-c2ccc(OC(F)(F)F)cc2)nc2[nH]nc(Nc3ccc(Cl)cc3)c12`, the IC50 was 3100 nM (coxsackievirus B3; viral cytopathic effect; HeLa).
`COc1ccc(C(=O)CCc2cc(C(CCc3ccc(O)cc3OC)c3ccc(O)cc3)c(O)cc2OC)cc1` (racemic) has a 4-HDHA level of 38 ± 7 pg/mL (human blood; 30 µM, added: A23187).
For `Cc1c(C)c2cccnc2c2ncccc12.O=[N+]([O-])[O-].O=c1c(C=NN=C([S-])Nc2ccccc2)coc2ccccc12.[Cu+2]`, “nicked circular DNA” read 100% (supercoiled pUC19 DNA; oxidative DNA cleavage; concentration not given, under nitrogen, added: ascorbic acid).
The IC50 of `CNS(=O)(=O)Nc1nccc(Cc2c(C)c3ccc(Oc4ncccc4F)cc3oc2=O)c1F` is reported as 360 nM (CAPAN-1; cell viability; 7 days).
`Nc1ncc(-c2cc(-c3cnn(CC(F)(F)F)c3)ncc2F)nc1C(=O)NC1CNCC(F)C1` (stereo not drawn) has a remaining binding of 96% (CAMK2B; KINOMEscan; 1 µM; reference: DMSO control).
With `Cn1cc(-c2cc3c(N4CCC[C@H](C(=O)NCc5ccc(OC(F)(F)F)cc5)C4)ncnc3[nH]2)cn1` the inhibition was 72.2% (NCI-H2228; cell growth or viability, MTT; 1 µg/mL, 72 h).
Under “IL6 mRNA level”, `N=C(NCC[C@H](NC(=O)c1noc(-c2cc(F)ccc2F)n1)c1nc2ccccc2[nH]1)c1ccc([N+](=O)[O-])o1` is recorded as “inhibited” (STING pathway; inhibitor, RT-qPCR; mouse iBMDM; concentration not given, 2 h, added: diABZI 500 nM).
The inhibition of `Cc1cc(N)ccc1-c1cc2c(N3CCC[C@H](C(=O)NCc4ccc(OC(F)(F)F)cc4)C3)ncnc2[nH]1` is reported as 66.2% (NCI-H2228; cell growth or viability, MTT; 1 µg/mL, 72 h).
With `CC(=O)[O-].O.O.O.O.[Ni+2].[O-]c1ccc(Br)cc1C=NCCN1CCOCC1` the inhibition was 12.4% (DPPH radical scavenging; 40 µM).

Excerpt of the above:
`CCN(CC)CC(=O)Nc1cccc(-n2cc(-c3ccc4ccc(-c5cn(-c6cccc(NC(=O)CN(CC)CC)c6)nn5)cc4c3)nn2)c1` gave a fold regulation of 1.65 (RCC4; PCR angiogenesis array, item: MMP2; 5 x IC50, 4 h, normoxia; reference: untreated).
`CC(C)(C)NCC(SS(=O)(=O)O)c1ccccc1` (stereo not drawn) has a liver weight of 3.99 g (Schistosoma mansoni; perfusion day 52; infected Swiss Webster mice; 600 mg/kg single dose, 1248 h, dosed day 7 post-infection).
For `Cc1ncsc1-c1ccc(C(C)NC(=O)C2CC(O)CN2C(=O)C(NC(=O)CCCCCCCCCCN2CCCC(Nc3ncc(Cl)c(Nc4ccccc4S(=O)(=O)C(C)C)n3)C2)C(C)(C)C)cc1` (stereo not drawn), “log2 fold change” read -2.77 (22Rv1; RNA-seq, item: MAFG-DT; concentration not given; reference: DMSO).
`CN1CCCNC(=O)c2cccc(c2)C(=O)NCCCN(C)CCCNc2cccc3c2C(=O)c2cccc(c2C3=O)NCCC1`: “log2 fold change” 1.39 (SAS; RNA-Seq, item: MRM1 mRNA; 1 µM, 6 h; reference: untreated cells).
